Assay results gathered from unrelated publications.
Numbered parts are unrelated; each lists some results of a single study. Positions count from the first letter of the parent shown.

Series 1
Target: CCNB2, cyclin fold, Cln2 fusion (human)
Method: yeast growth competition, sequencing
Medium: yeast
Notes: weak parent motif
Relative to: not given
Reading: higher = stronger binding
Parent: USP37 docking peptide (human); PSAKRSLGFLPQP; partner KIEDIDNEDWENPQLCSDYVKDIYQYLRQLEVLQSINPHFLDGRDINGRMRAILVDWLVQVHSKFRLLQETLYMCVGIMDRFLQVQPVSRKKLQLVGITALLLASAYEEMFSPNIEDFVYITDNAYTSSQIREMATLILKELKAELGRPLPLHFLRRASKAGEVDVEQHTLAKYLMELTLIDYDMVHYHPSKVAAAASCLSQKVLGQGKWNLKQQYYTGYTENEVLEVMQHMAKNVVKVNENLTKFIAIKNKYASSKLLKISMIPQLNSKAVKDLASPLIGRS
Variant	normalised enrichment score
P1A	0.236
R5A	-0.0368
L10A	0.227
K4A	0.478
S6A	0.307
P11A	-0.0358

Series 2
Target: ABI1, truncated, D143A, DHFR fusion (Arabidopsis thaliana)
Method: DHFR PCA, deep sequencing
Medium: yeast
Notes: methotrexate growth selection, single substitutions
With: (+)-ABA 0 µM
Relative to: wild-type fitted maximum
Reading: higher = stronger binding
Parent: PYL1, truncated, DHFR fusion (Arabidopsis thaliana); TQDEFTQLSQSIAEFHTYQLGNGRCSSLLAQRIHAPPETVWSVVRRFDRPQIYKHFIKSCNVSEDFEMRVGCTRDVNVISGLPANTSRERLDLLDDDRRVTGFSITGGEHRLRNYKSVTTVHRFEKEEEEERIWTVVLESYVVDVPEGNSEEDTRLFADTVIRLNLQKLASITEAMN
Variant	relative binding score [%]
N177F	23.8
E131C	30.6
A84D	20.4
Q7K	16
S27A	2.47
V100C	17.6
F157A	1.1
A158P	-8.3
V100E	-1.6
E128I	-3.41
R99L	46.1
V78K	2.19
E64P	48.7
L93V	32.5
V161T	14.2
E130W	1.35

Series 3
Target: Ras GTPase-activating protein-binding protein 1, RRM domain (G3BP1, Homo sapiens, UniProt Q13283)
UniProt Q13283, sequence (whole entry, looked up): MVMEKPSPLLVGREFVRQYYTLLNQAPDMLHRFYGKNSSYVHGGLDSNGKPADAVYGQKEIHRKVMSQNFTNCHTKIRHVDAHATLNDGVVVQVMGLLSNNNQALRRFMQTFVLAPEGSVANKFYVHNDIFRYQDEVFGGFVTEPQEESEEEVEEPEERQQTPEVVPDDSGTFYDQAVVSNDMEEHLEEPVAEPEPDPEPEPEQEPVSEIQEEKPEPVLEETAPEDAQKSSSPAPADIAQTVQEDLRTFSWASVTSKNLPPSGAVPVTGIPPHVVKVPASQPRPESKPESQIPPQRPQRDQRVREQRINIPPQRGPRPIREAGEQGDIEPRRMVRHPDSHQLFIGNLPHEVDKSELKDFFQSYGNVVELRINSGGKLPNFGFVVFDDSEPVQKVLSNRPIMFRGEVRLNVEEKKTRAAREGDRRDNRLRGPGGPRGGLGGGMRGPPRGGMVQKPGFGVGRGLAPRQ
Method: RNA Bind-n-Seq
Form: RNA
Medium: in vitro
Concentration: 1 µM
Notes: whole 134-nt RNA, ends assumed
With: 150 mM KCl
Relative to: input library
Reading: higher = stronger binding
Strand	log2 enrichment
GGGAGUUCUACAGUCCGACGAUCCAAGUCCUGUGCUACACAUCGUAUGUACCGAAUCGGGUGGGAAAAAGGGUUUGGGAAAGUAUUAUGUUACGCCGUUCGGAUCUGCACUUCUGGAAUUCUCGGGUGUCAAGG	0.82
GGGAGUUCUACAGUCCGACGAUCCCUGUGCUACACAUCGUAUGUACCGAAUCGGGGUUUUUUUGGGGAGGGGUUUUUUUGGGGAAAGUAUUAUGUUACGCCGUUCGGAUCUGCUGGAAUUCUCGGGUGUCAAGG	0.4
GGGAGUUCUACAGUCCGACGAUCCCUGUGCUACACAUCGUAUGUACCGAAUCGGGGAAAAAAGGGAAAAAAGGGAAAAAAGGGGAAAGUAUUAUGUUACGCCGUUCGGAUCUGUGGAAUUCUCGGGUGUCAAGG	0.0194
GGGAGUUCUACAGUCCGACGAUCCCUGUGCUACACAUCGUAUGUACCGAAUCGGUUUUUUUGGUUUUUUUGGUUUUUUUGGGGAAAGUAUUAUGUUACGCCGUUCGGAUCUGCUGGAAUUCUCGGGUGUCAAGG	-0.339
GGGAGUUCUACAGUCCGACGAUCGUCCUGUGCUACACAUCGUAUGUACCGAAUCGGGGUUUGGGGUUUUUUUGGGGAGGGGAAAGUAUUAUGUUACGCCGUUCGGAUCUGCACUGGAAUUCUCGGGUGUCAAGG	1.08
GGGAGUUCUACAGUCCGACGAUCCUGUGCUACACAUCGUAUGUACCGAAUCGGGGUUUUUUUGGGGUUUUUGGGGUUUUUGGGGAAAGUAUUAUGUUACGCCGUUCGGAUCUGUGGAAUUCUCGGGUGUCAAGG	0.79
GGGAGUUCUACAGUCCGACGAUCUUACACAAACCUGCAGGUGAAGACAGGCCAGCGGACCCUCAUCAACCCCAAGCCCUGUGGCCAGUUUUGCUGCUGUGAAGUGCUGGGCUGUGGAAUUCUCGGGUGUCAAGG	-0.25
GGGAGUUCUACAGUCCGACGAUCCUCAAGUCCUGUGCUACACAUCGUAUGUACCGAAUCGGGAGGGAGGGUUUGGGAAAGUAUUAUGUUACGCCGUUCGGAUCUGCACUUCCAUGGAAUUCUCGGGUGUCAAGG	0.793
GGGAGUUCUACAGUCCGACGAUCAGUCCUGUGCUACACAUCGUAUGUACCGAAUCGGGGAAAAAAAGGGGUGGGGUGGGGAAAGUAUUAUGUUACGCCGUUCGGAUCUGCACUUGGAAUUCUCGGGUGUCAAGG	0.636
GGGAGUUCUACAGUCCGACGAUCCUCAAGUCCUGUGCUACACAUCGUAUGUACCGAAUCGGAAAGGAAAAAGGAGGAAAGUAUUAUGUUACGCCGUUCGGAUCUGCACUUCCAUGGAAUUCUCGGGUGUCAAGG	-0.161

Series 4
Target: XBP1, bZIP domain (human)
Method: DHFR protein complementation
Medium: yeast
Notes: single substitutions, most at no-binding floor
Relative to: wild-type JUN-FOS pair
Reading: higher = stronger binding
Parent: JUN, bZIP domain (human); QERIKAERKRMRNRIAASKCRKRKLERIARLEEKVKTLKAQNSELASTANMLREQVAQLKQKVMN; partner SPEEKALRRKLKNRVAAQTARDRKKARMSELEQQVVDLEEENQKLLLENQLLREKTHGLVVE
Variant	binding fitness [natural log]
V35P	-1.48
E32D	-1.33
L52N	-1.48
A57S	-0.648
K36F	-1.3
T48F	-1.41
E54Q	-1.42
K36C	-1.02
E44N	-1.07
Q41P	-1.49
K36M	-0.631
A57K	-1.22
A40C	-1.22
A29R	-0.68
K39Y	-1.23
M51K	-0.59
M51F	-0.804
L45C	-1.37
L59G	-0.233
A49H	-0.701
K34P	-1.48
K34S	-1.27
L45N	-1.4
A49Y	-0.71
S43L	-0.551

Series 5
Target: Histone acetyltransferase KAT6A, winged helix 2, GST fusion (KAT6A, Homo sapiens, UniProt Q92794, residues 85-181)
Method: protein binding microarray
Form: double-stranded DNA, one strand shown
Medium: in vitro
Concentration: not given
Notes: 8-mer, flanks averaged, mean of 2 arrays, mostly near background
Relative to: not given
Reading: higher = stronger binding
Residues (chain): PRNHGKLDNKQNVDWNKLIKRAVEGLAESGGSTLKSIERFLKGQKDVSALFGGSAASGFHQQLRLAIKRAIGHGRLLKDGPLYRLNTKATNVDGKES
Strand	E-score
GAATGCAC	0.105
AGCAGTGA	0.0957
GCGGTGTA	0.048
ATCAAGCA	0.0962
CAGATTAC	0.0318
CGATGATC	0.00724
CGGTTGCC	0.0977
CAGACCAG	0.0343
ATGTAAAC	-0.105
AACGGTAA	-0.29
CTTACCTA	-0.126
CCCTTTCA	-0.0779
GCGCGGGA	0.186
GGCCAATA	-0.128
ACTTAAAG	-0.25
AGAGTAGA	0.0696
TAGACCCA	0.013
GTCTATCA	-0.00668
AAGAAGAC	-0.127
ATCAGTTC	-0.0958
CCCTAAGC	-0.0831
ACAAAGTC	-0.0619
GGTCGTAC	-0.0818
AATTAGAA	-0.135

Repeated from above (series 3):
Strand	log2 enrichment
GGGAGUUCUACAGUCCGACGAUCGUCCUGUGCUACACAUCGUAUGUACCGAAUCGGGGUUUGGGGUUUUUUUGGGGAGGGGAAAGUAUUAUGUUACGCCGUUCGGAUCUGCACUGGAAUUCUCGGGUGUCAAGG	1.08
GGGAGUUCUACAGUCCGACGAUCCCUGUGCUACACAUCGUAUGUACCGAAUCGGUUUUUUUGGUUUUUUUGGUUUUUUUGGGGAAAGUAUUAUGUUACGCCGUUCGGAUCUGCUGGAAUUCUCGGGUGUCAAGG	-0.339
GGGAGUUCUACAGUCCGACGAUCAGUCCUGUGCUACACAUCGUAUGUACCGAAUCGGGGAAAAAAAGGGGUGGGGUGGGGAAAGUAUUAUGUUACGCCGUUCGGAUCUGCACUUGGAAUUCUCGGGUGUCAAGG	0.636
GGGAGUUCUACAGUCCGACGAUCCUGUGCUACACAUCGUAUGUACCGAAUCGGGGUUUUUUUGGGGUUUUUGGGGUUUUUGGGGAAAGUAUUAUGUUACGCCGUUCGGAUCUGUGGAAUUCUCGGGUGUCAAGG	0.79
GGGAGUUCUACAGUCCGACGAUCUUACACAAACCUGCAGGUGAAGACAGGCCAGCGGACCCUCAUCAACCCCAAGCCCUGUGGCCAGUUUUGCUGCUGUGAAGUGCUGGGCUGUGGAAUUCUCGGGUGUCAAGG	-0.25
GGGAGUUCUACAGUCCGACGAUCCCUGUGCUACACAUCGUAUGUACCGAAUCGGGGAAAAAAGGGAAAAAAGGGAAAAAAGGGGAAAGUAUUAUGUUACGCCGUUCGGAUCUGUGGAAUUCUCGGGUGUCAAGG	0.0194
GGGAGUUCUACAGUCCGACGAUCCAAGUCCUGUGCUACACAUCGUAUGUACCGAAUCGGGUGGGAAAAAGGGUUUGGGAAAGUAUUAUGUUACGCCGUUCGGAUCUGCACUUCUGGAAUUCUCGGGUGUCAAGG	0.82
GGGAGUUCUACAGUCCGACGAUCCUCAAGUCCUGUGCUACACAUCGUAUGUACCGAAUCGGAAAGGAAAAAGGAGGAAAGUAUUAUGUUACGCCGUUCGGAUCUGCACUUCCAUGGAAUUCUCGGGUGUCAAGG	-0.161
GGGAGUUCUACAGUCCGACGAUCCCUGUGCUACACAUCGUAUGUACCGAAUCGGGGUUUUUUUGGGGAGGGGUUUUUUUGGGGAAAGUAUUAUGUUACGCCGUUCGGAUCUGCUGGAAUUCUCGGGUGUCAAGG	0.4
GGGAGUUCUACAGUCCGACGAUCCUCAAGUCCUGUGCUACACAUCGUAUGUACCGAAUCGGGAGGGAGGGUUUGGGAAAGUAUUAUGUUACGCCGUUCGGAUCUGCACUUCCAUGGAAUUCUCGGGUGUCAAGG	0.793
